Assay results collected from several papers.
Each line is one published result; not all experiments were run side by side.
Technique: steady-state kinetics
B1: Comt (Rattus norvegicus, UniProt P22734); chain MPLAAVSLGLLLLALLLLLRHLGWGLVTIFWFEYVLQPVHNLIMGDTKEQRILRYVQQNAKPGDPQSVLEAIDTYCTQKEWAMNVGDAKGQIMDAVIREYSPSLVLELGAYCGYSAVRMARLLQPGARLLTMEMNPDYAAITQQMLNFAGLQDKVTILNGASQDLIPQLKKKYDVDTLDMVFLDHWKDRYLPDTLLLEKCGLLRKGTVLLADNVIVPGTPDFLAYVRGSSSFECTHYSSYLEYMKVVDGLEKAIYQGPSSPDKS
B2: enzyme (Candida albicans, UniProt A0A1D8PHX1); chain MISIIQNGISQLSSVSGLDEANLKILICTLLSFPFGIIFKRLPDHDYTLKNIYNVAVSCFYVFGICDLRFGISTLLISATGSYFITRYVRTKSMPWINFLFLMIHMAYSHFHLQFFKEYDPKSIDITGAQMILVMKLSAFGWNIHDGKQPRSTLNDFNKARAITKHPNVLPYIGYVFFYASLLTGPAFDYADYDKFIHGTLFDDVPQDKRPGKNKRRIPRSGVQAFKKFSLGFFWAFLLLQSDKFVTMEYMFSPEFVQYHGLFYRIIYMWILGFTFRLKYYTIWTIAEGACILCGIGYNGVDPETGEFKWNRVQNIDPWSFETGQNVHACLEAWNQNTNIWLKNYVYLRVAKPGKKPGFKSTIFTFTTSAFWHGTRPGYYLTFVVGALMQTVGKYYRRNFRPIFLEADGKTPKPTKIVYDFVCWVNTQLAFGFFVQPFVILGFTKSLECWATVYYWLLWVIAISFFAFSGPFAKSVSKFFKSLQPSYREQQRKSREDKYKLNNEEASIVEQAVGAKLGQDYDIPALGLPPFDVFTDFDQTEVDHDIQHLRKAWTSFRGRRGSITENDFDGLKDAYNNFTNEINDIFNTKKEEFKKEKLNKQN
B3: FMO3 E158K (Homo sapiens, UniProt P31513); chain GKKVAIIGAGVSGLASIRSCLEEGLEPTCFEKSNDIGGLWKFSDHAEEGRASIYKSVFSNSSKEMMCFPDFPFPDDFPNFMHNSKIQEYIIAFAKEKNLLKYIQFKTFVSSVNKHPDFATTGQWDVTTERDGKKESAVFDAVMVCSGHHVYPNLPKKSFPGLNHFKGKCFHSRDYKEPGVFNGKRVLVVGLGNSGCDIATELSRTAEQVMISSRSGSWVMSRVWDNGYPWDMLLVTRFGTFLKNNLPTAISDWLYVKQMNARFKHENYGLMPLNGVLRKEPVFNDELPASILCGIVSVKPNVKEFTETSAIFEDGTIFEGIDCVIFATGYSFAYPFLDESIIKSRNNEIILFKGVFPPLLEKSTIAVIGFVQSLGAAIPTVDLQSRWAAQVIKGTCTLPSMEDMMNDINEKMEKKRKWFGKSETIQTDYIVYMDELSSFIGAKPNIPWLFLTDPKLAMEVYFGPCSPYQFRLVGPGQWPGARNAILTQWDRSLKPMQTRVVGRLQKPCFFFHWLKLFAIPILLIAVFLVLT
B4: enzyme (Arabidopsis thaliana, UniProt O82390); chain MNARALLCSSNIHSLYTSNRPPEKTSSSRSLRNLKPSPKSLRVWIYPRNRSSVFRVLVRSSDKSESSNSYYVEGDKVSGNNDVVSDSPSSIVLPWWEEFPKRWVIVLLCFSAFLLCNMDRVNMSIAILPMSAEYGWNPATVGLIQSSFFWGYLLTQIAGGIWADTVGGKRVLGFGVIWWSIATILTPVAAKLGLPYLLVVRAFMGVGEGVAMPAMNNILSKWVPVQERSRSLALVYSGMYLGSVTGLAFSPFLIHQFGWPSVFYSFGSLGTVWLTLWLTKAESSPLEDPTLLPEERKLIADNCASKEPVKSIPWRLILSKPPVWALISCHFCHNWGTFILLTWMPTYYHQVLKFNLMESGLLSVFPWMTMAISANAGGWIADTLVSRGFSVTNVRKIMQTIGFLGPAFFLTQLKHIDSPTMAVLCMACSQGTDAFSQSGLYSNHQDIAPRYSGVLLGLSNTAGVLAGVLGTAATGHILQHGSWDDVFTISVGLYLVGTVIWNLFSTGEKIID
B5: FMO3 V277A (Homo sapiens, UniProt P31513); chain GKKVAIIGAGVSGLASIRSCLEEGLEPTCFEKSNDIGGLWKFSDHAEEGRASIYKSVFSNSSKEMMCFPDFPFPDDFPNFMHNSKIQEYIIAFAKEKNLLKYIQFKTFVSSVNKHPDFATTGQWDVTTERDGKKESAVFDAVMVCSGHHVYPNLPKESFPGLNHFKGKCFHSRDYKEPGVFNGKRVLVVGLGNSGCDIATELSRTAEQVMISSRSGSWVMSRVWDNGYPWDMLLVTRFGTFLKNNLPTAISDWLYVKQMNARFKHENYGLMPLNGALRKEPVFNDELPASILCGIVSVKPNVKEFTETSAIFEDGTIFEGIDCVIFATGYSFAYPFLDESIIKSRNNEIILFKGVFPPLLEKSTIAVIGFVQSLGAAIPTVDLQSRWAAQVIKGTCTLPSMEDMMNDINEKMEKKRKWFGKSETIQTDYIVYMDELSSFIGAKPNIPWLFLTDPKLAMEVYFGPCSPYQFRLVGPGQWPGARNAILTQWDRSLKPMQTRVVGRLQKPCFFFHWLKLFAIPILLIAVFLVLT
B6: enzyme R120K (Arabidopsis thaliana, UniProt O82390); chain MNARALLCSSNIHSLYTSNRPPEKTSSSRSLRNLKPSPKSLRVWIYPRNRSSVFRVLVRSSDKSESSNSYYVEGDKVSGNNDVVSDSPSSIVLPWWEEFPKRWVIVLLCFSAFLLCNMDKVNMSIAILPMSAEYGWNPATVGLIQSSFFWGYLLTQIAGGIWADTVGGKRVLGFGVIWWSIATILTPVAAKLGLPYLLVVRAFMGVGEGVAMPAMNNILSKWVPVQERSRSLALVYSGMYLGSVTGLAFSPFLIHQFGWPSVFYSFGSLGTVWLTLWLTKAESSPLEDPTLLPEERKLIADNCASKEPVKSIPWRLILSKPPVWALISCHFCHNWGTFILLTWMPTYYHQVLKFNLMESGLLSVFPWMTMAISANAGGWIADTLVSRGFSVTNVRKIMQTIGFLGPAFFLTQLKHIDSPTMAVLCMACSQGTDAFSQSGLYSNHQDIAPRYSGVLLGLSNTAGVLAGVLGTAATGHILQHGSWDDVFTISVGLYLVGTVIWNLFSTGEKIID
UniProt O60656, sequence (whole entry, looked up): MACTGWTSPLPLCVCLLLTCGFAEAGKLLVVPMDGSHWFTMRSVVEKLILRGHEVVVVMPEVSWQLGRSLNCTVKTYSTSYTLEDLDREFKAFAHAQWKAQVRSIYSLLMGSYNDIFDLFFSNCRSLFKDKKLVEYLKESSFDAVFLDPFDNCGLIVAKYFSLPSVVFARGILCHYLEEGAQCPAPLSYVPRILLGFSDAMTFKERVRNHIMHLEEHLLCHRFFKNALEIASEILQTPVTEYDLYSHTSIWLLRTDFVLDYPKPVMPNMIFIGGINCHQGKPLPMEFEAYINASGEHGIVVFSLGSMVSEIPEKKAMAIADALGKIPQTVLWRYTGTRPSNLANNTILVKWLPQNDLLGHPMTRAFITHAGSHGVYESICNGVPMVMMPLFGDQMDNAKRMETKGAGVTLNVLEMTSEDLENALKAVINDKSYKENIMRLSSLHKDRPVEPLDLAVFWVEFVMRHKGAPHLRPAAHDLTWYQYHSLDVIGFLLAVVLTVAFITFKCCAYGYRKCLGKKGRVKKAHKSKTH
UniProt Q3SY77, sequence (whole entry, looked up): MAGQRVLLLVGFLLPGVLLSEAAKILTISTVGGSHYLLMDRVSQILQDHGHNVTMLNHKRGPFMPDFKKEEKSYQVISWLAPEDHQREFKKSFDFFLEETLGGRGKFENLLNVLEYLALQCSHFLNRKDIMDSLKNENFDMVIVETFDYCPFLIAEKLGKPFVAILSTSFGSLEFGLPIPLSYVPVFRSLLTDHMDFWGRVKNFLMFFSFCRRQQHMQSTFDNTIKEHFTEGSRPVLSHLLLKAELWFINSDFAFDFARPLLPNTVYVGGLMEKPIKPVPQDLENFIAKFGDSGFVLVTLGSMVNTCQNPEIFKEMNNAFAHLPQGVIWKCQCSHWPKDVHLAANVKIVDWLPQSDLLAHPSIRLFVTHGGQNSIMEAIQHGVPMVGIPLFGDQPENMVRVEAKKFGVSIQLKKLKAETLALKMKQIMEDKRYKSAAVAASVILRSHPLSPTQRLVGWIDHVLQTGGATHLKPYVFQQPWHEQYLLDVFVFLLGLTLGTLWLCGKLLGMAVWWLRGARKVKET
UniProt P10632, sequence (whole entry, looked up): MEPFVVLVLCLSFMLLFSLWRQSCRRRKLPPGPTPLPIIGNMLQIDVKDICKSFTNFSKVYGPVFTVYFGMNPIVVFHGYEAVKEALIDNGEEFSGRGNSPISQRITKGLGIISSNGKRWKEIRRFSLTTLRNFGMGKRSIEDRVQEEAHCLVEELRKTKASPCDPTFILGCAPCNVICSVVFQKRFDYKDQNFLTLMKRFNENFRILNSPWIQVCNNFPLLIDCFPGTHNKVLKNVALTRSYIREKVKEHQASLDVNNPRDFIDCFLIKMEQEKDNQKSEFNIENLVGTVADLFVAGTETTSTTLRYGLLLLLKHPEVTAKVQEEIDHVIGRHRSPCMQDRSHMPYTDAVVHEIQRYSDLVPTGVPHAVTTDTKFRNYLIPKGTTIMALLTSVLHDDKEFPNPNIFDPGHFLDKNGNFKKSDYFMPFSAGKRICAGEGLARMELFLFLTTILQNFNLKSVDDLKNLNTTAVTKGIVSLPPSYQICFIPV

Substance	substrate	test system	setting	Vmax/Km [µL/min/mg]
UGT3A2 (Homo sapiens, UniProt Q3SY77)	O=c1ccn([C@@H]2O[C@H](CO[P@@](=O)(O)O[P@@](=O)(O)O[C@H]3O[C@H](CO)[C@@H](O)[C@H](O)[C@H]3O)[C@@H](O)[C@H]2O)c(=O)[nH]1		pH 7.4, 37 °C, not purified, together with: 1-OH-pyrene 16 µM, MgCl2 10 mM, alamethicin	4.7
B1 (Comt)	O=c1oc2c(O)c(O)ccc2cc1-c1nc2ccccc2s1	rat liver S9	pH 7.4, 37 °C	763
UGT1A9 (Homo sapiens, UniProt O60656)	COc1ccc(/C=C\c2cc(OC)c(OC)c(OC)c2)cc1O		pH 7.4, 37 °C	2160
CYP2C8 (Homo sapiens, UniProt P10632)	COc1cc2c(cc1CC=C(C)C)C(=O)C[C@@H](c1ccc(O)cc1)O2		pH 7.4, 37 °C	182
CYP2C19 (Homo sapiens, UniProt P33261)	CN1C(=O)CC[C@H]1c1cccnc1	microsomes	pH 6.7, cotinine to COX, not purified	0.042
B2 (enzyme)	CC/C=C\C/C=C\C/C=C\CCCCCCCC(=O)SCCNC(=O)CCNC(=O)[C@H](O)C(C)(C)COP(=O)(O)OP(=O)(O)OC[C@H]1O[C@@H](n2cnc3c(N)ncnc32)[C@H](O)[C@@H]1OP(=O)(O)O		pH 7.4, 37 °C, apparent, not purified	1500
B3 (FMO3 E158K)	CN1CCC[C@H]1c1cccnc1	HEK293 microsomes	37 °C, not purified, together with: NADPH regenerating system	0.0062
B4 (enzyme)	O=P(O)(O)O		pH 6.5, 25 °C, apparent, not purified	71.7
B5 (FMO3 V277A)	CN1CCC[C@H]1c1cccnc1	HEK293 microsomes	37 °C, not purified, together with: NADPH regenerating system	0.0098
B6 (enzyme R120K)	O=P(O)(O)O		pH 6.5, 25 °C, apparent, not purified	26.7

Excerpt of the above:
Substance	substrate	test system	setting	Vmax/Km [µL/min/mg]
B4 (enzyme)	O=P(O)(O)O		pH 6.5, 25 °C, apparent, not purified	71.7
